Assay results collected from several papers.
Lines come from different studies, so protocols differ.
Organism: Trypanosoma cruzi

SMILES = CSC1=NCc2c([nH]c3ccccc23)S1; assay = parasite growth, [3H]uracil incorporation; test system = rat L6E9 myoblasts, amastigote; setting = 72 h; measurement = IC50; value = 11.3 µM
SMILES = c1ccc2c(NCC3CCCO3)nc(Nc3ccncc3)nc2c1 (stereo not shown); assay = mRNA translation, refers to: Renilla luciferase reporter; test system = cell-free translation extract; setting = 40 µM, 2 h; measurement = inhibition; value = 53.5%
SMILES = Cc1cc(C)c(C#N)c(SC(C)C(=O)c2ccccc2)n1 (stereo not shown); test system = MRC5, Tulahuen, beta-galactosidase; setting = intracellular amastigotes; measurement = EC50; value = 33 µM
SMILES = CC[C@@H]1/C=C(\C)C[C@H](C)C[C@H](OC)[C@H]2O[C@@](O)(C(=O)C(=O)N3CCCC[C@H]3C(=O)O[C@H](/C(C)=C/[C@@H]3CC[C@H](Cl)[C@H](OC)C3)[C@H](C)[C@@H](O)CC1=O)[C@H](C)C[C@@H]2OC; test system = Vero, Tulahuen β-galactosidase; scale = relative to: Vero CC50 over T. cruzi IC50; measurement = selectivity index; value = 160
SMILES = Cc1cc(C)c(C#N)c(SCc2ccccc2)n1; test system = MRC5, Tulahuen, beta-galactosidase; setting = intracellular amastigotes; measurement = EC50; value = 36.8 µM
SMILES = O=C(Cn1ccnc1[N+](=O)[O-])NCc1ccccc1; assay = trypomastigote release; test system = CHO, Y GFP-expressing; setting = 6 d post infection, 0.5% heat-inactivated FBS, low ROS; measurement = IC50; value = 1.35 µM
SMILES = OC(Cn1cncn1)(Cn1cncn1)c1ccc(F)cc1F; test system = CL Brener; scale = relative to: Vero IC50 over parasite IC50; measurement = selectivity ratio; value = 7.3
SMILES = C#CCC(Cc1cnc2nc(N)nc(N)c2n1)c1ccc(C(=O)N[C@@H](CCC(=O)O)C(=O)O)cc1 (stereo partly shown); test system = Vero, Tulahuen β-galactosidase; scale = relative to: Vero CC50 over T. cruzi IC50; measurement = selectivity index; value = 4.2
SMILES = COc1ccccc1Nc1nc(NCC2CCCO2)c2ccccc2n1 (stereo not shown); assay = mRNA translation, refers to: Renilla luciferase reporter; test system = cell-free translation extract; setting = 40 µM, 2 h; measurement = inhibition; value = 59.1%
SMILES = CC[C@]1(O)C[C@@H]2CN(CCc3c([nH]c4ccccc34)[C@@](C(=O)OC)(c3cc4c(cc3OC)N(C)[C@H]3[C@@](O)(C(=O)OC)[C@H](OC(C)=O)[C@]5(CC)C=CCN6CC[C@]43[C@@H]65)C2)C1; test system = Vero, Tulahuen β-galactosidase; scale = relative to: Vero CC50 over T. cruzi IC50; measurement = selectivity index; value = < 2.1
SMILES = COc1ccc(C(=O)CSc2[nH]c(=O)cc(C(F)(F)F)c2C#N)cc1; test system = MRC5, Tulahuen, beta-galactosidase; setting = intracellular amastigotes; measurement = EC50; value = 15.4 µM
SMILES = CC(C)(C)[C@@H]1NC(=O)O[C@@H]2CCC[C@H]2OC/C=C/C(F)(F)c2nc3ccccc3nc2O[C@@H]2C[C@@H](C(=O)N[C@]3(C(=O)NS(=O)(=O)C4(C)CC4)C[C@H]3C(F)F)N(C2)C1=O; test system = Vero, Tulahuen β-galactosidase; scale = relative to: Vero CC50 over T. cruzi IC50; measurement = selectivity index; value = 0.4
SMILES = Cc1cc(C)c(C(N)=O)c(SCC(=O)c2ccc(F)cc2)n1; test system = MRC5, Tulahuen, beta-galactosidase; setting = intracellular amastigotes; measurement = EC50; value = 12 µM
SMILES = c1ccc2c(NCC3CCCO3)ncnc2c1 (stereo not shown); assay = mRNA translation, refers to: Renilla luciferase reporter; test system = cell-free translation extract; setting = 40 µM, 2 h; measurement = inhibition; value = 34.9%
SMILES = Cc1cc(C)c(C#N)c(SC2COc3ccccc3C2=O)n1 (stereo not shown); test system = MRC5, Tulahuen, beta-galactosidase; setting = intracellular amastigotes; measurement = EC50; value = 4.83 µM
SMILES = Cl.Fc1cccc(Nc2nc(NCC3CCCO3)c3ccccc3n2)c1 (stereo not shown); assay = mRNA translation, refers to: Renilla luciferase reporter; test system = cell-free translation extract; setting = 40 µM, 2 h; measurement = inhibition; value = 65.4%
SMILES = CO[C@H]1/C=C/O[C@@]2(C)Oc3c(C)c(O)c4c(O)c(c(/C=N/N5CCN(C6CCCC6)CC5)c(O)c4c3C2=O)NC(=O)/C(C)=C\C=C\[C@H](C)[C@H](O)[C@@H](C)[C@@H](O)[C@@H](C)[C@H](OC(C)=O)[C@@H]1C; test system = Vero, Tulahuen β-galactosidase; scale = relative to: Vero CC50 over T. cruzi IC50; measurement = selectivity index; value = 3.6
SMILES = Cl.Oc1ccc(Nc2nc(NCC3CCCO3)c3ccccc3n2)cc1 (stereo not shown); assay = mRNA translation, refers to: Renilla luciferase reporter; test system = cell-free translation extract; setting = 40 µM, 2 h; measurement = inhibition; value = 57.6%
SMILES = Cc1cc(C)c(C#N)c(OCC(=O)c2ccccc2)n1; test system = MRC5, Tulahuen, beta-galactosidase; setting = intracellular amastigotes; measurement = EC50; value = 20.7 µM

For quick reference, copied from above:
SMILES = C#CCC(Cc1cnc2nc(N)nc(N)c2n1)c1ccc(C(=O)N[C@@H](CCC(=O)O)C(=O)O)cc1 (stereo partly shown); test system = Vero, Tulahuen β-galactosidase; scale = relative to: Vero CC50 over T. cruzi IC50; measurement = selectivity index; value = 4.2
SMILES = COc1ccccc1Nc1nc(NCC2CCCO2)c2ccccc2n1 (stereo not shown); assay = mRNA translation, refers to: Renilla luciferase reporter; test system = cell-free translation extract; setting = 40 µM, 2 h; measurement = inhibition; value = 59.1%
